Measured values gathered from unrelated publications.
Each line is one published result; not all experiments were run side by side. Numbers after ± are the reported error. Values after ≈ are worked out from the molar mass of the structure shown.

| SMILES | test | test system | conditions | how to read | quantity | result |
| --- | --- | --- | --- | --- | --- | --- |
| O=C(Nc1cnccc1Cl)N1CCN(Cc2ccc3c(c2)OC(F)(F)O3)CC1 | multiple ascending dose | young men | 10 mg, treatment-emergent adverse events | – | back pain incidence | 50% |
| CCOc1c([C@H](C)n2nc(C)c3c(N)ncnc32)cc(Cl)c(F)c1[C@@H]1CNC(=O)C1 | – | patients, monotherapy | oral, 30 mg once daily, cycle 1 day 15 | – | Cmax geometric mean | 3.27 µM |
| COc1cc(Nc2ncc3c(n2)-c2ccc(Cl)cc2C(c2c(F)cccc2OC)=NC3)ccc1C(=O)O | refers to: weight loss, grade 1 | cancer patients, phase 1/2 | oral, dose not given, with: pembrolizumab | – | patients with adverse event | 17% |
| CCCOc1ccc(NC(=O)CN2CCN(C)CC2)cc1-c1nc(CC)c(CC)c(=O)[nH]1 | – | healthy Chinese men | 10 mg, with: placebo | – | AUEC(0-4 h) pulse rate | 11.3 ± 14.7 h·bpm |
| c1csc(CNc2cc[nH]n2)c1 | alkaline comet | Hsd:ICR(CD-1) mice, female, liver | oral, 250 mg/kg/day, 3 days | – | tail DNA | 5.13% |
| O=C(Nc1nc2cccc(-c3ccc(CN4CCS(=O)(=O)CC4)cc3)n2n1)C1CC1 | refers to: hypotension | human rheumatoid arthritis patients | oral, 300 mg once daily, 4 weeks, regardless of relatedness | – | treatment-emergent adverse events | 0% |
| CC(C)(C(=O)N1CCOc2c(C#N)cncc2C1)C(F)F | refers to: Restlessness | human | oral, 20 mg once daily, 14 days, multiple ascending dose | – | subjects with adverse event | 0% |
| N#CCC1CCN(c2nc(Nc3ccc(N4CCC(O)CC4)cc3)c3c(=O)[nH]ncc3n2)CC1 | – | human, plasma | oral, 20 mg once daily, day 15 | – | t1/2 | 7.33 h |
| Cc1cccc(NS(=O)(=O)c2cc(C(=O)Nc3ccccc3C(=O)N3CCOCC3)ccc2Cl)c1 | – | aqueous buffer | pH 7.4 | – | thermodynamic solubility | < 7.14 µM |
| COc1ccc2c(=O)n(C)c(-c3ccccc3)nc2c1 | – | male Sprague-Dawley rat, bladder | oral, 30 mg/kg, 0.5 h | – | tissue concentration | 104 ng/g |
| C1=C/COCc2cc(ccc2OCCN2CCCC2)Nc2nccc(n2)-c2cccc(c2)COC/1 | – | rat plasma | 600 ng/mL, 4 h, room temperature | baseline: nominal concentration | stability relative error | 1.25% |
| CN(C)C(=N)N=C(N)N | refers to: oropharyngeal pain | healthy men | oral, dose not given, 8 days, treatment-emergent, crossover trial | – | subjects with adverse event | 4.5% |
| CCCc1ccc(-c2ccc(-c3cc(F)c(F)c(F)c3)c(F)c2)cc1 | – | rat, fetus | 5000 ng/mL in perfusate, high dose, mixture of 21 LCMs | – | median fetal accumulation | 0.429 ng/g |
| C[C@@H](Nc1cc(F)cc(F)c1)c1cc(C(=O)N(C)C)cc2c(=O)cc(N3CCOCC3)oc12 | refers to: Nausea | advanced solid tumour patients | oral, dose not given, dose expansion | – | related serious adverse events | 0% |
| Cn1cc(Nc2nccc(-c3ccc4c(c3)CN(C3COC3)CC[C@H]4NC(=O)c3cn(C(C)(C)C)nn3)n2)cn1 | – | human, whole blood | 300 mg twice daily, day 7 | baseline: pre-dose baseline | CD4+ T cell count change | -2.1% |
| N#CC1CCN(c2nc(-c3ccccn3)nc3ccccc23)C1 (centres unmarked) | – | Japanese Pharmacopoeia disintegration test solution 2 | pH 6.8 | – | kinetic solubility | 36 µg/mL (≈ 119 µM) |
| Cc1nn(CC(F)(F)F)cc1Nc1ncc(Br)c(NCc2ccc(S(N)(=O)=O)cc2)n1 | PAMPA | PBS | 5 h, pH 7.4 | – | PAMPA permeability | not detected |
| Nc1nc2c(nc([N+](=O)[O-])n2[C@@H]2O[C@H](CO)[C@@H](O)[C@H]2O)c(=O)[nH]1 | depurination, RP-HPLC | citrate-phosphate buffer 0.5 mM | 1260 min, pH 5, 37 °C | – | nucleoside remaining fraction | 0.433 |
| CC(C)c1nc(CN(C)C(=O)N[C@@H](CCN2CCOCC2)C(=O)N[C@H](CC[C@H](Cc2ccccc2)NC(=O)OCc2cncs2)Cc2ccccc2)cs1 | – | human | oral, dose not given | – | participants with Somnolence | 0% |
| O=C1c2ccncc2C(=O)c2c1[nH]c1ccccc21 | – | Sprague-Dawley rat, male, plasma | intravenous, 1 mg/kg | – | MRT | 7.2 ± 0.8 h |

A few entries again:
| SMILES | test | test system | conditions | how to read | quantity | result |
| --- | --- | --- | --- | --- | --- | --- |
| N#CCC1CCN(c2nc(Nc3ccc(N4CCC(O)CC4)cc3)c3c(=O)[nH]ncc3n2)CC1 | – | human, plasma | oral, 20 mg once daily, day 15 | – | t1/2 | 7.33 h |
| Cc1cccc(NS(=O)(=O)c2cc(C(=O)Nc3ccccc3C(=O)N3CCOCC3)ccc2Cl)c1 | – | aqueous buffer | pH 7.4 | – | thermodynamic solubility | < 7.14 µM |
